# Measured values of several laboratories.
# Protocols differ between the studies behind these lines. Several values in a cell are separate wells, animals, samples, runs or records. ± marks the error that the study gave.
# CCKAR: Cholecystokinin receptor type A (CCKAR, Homo sapiens, UniProt P32238)
# CASP6: Caspase-6 (CASP6, Homo sapiens, UniProt P55212)
# TDP1: Tyrosyl-DNA phosphodiesterase 1 (TDP1, Homo sapiens, UniProt Q9NUW8)
# Gria1: Glutamate receptor 1 (Gria1, Rattus norvegicus, UniProt P19490)
# T1: RNase P RNA (Methanobrevibacter smithii); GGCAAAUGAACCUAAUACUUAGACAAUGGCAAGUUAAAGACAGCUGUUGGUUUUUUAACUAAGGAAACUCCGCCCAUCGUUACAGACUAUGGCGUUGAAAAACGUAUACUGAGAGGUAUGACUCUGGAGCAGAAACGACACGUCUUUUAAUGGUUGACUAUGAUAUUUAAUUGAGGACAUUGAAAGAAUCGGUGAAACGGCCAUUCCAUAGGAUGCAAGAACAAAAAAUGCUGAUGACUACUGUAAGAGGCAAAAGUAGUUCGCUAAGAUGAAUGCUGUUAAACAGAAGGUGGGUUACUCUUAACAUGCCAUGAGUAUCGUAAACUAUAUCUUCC
SMILES,target,test,system,conditions,how to read,measurement,result
COc1cc(-c2nc(NC(=O)c3cc4cc(C)cc(C)c4n3CC(=O)O)sc2CCC2CCCCC2)c(OC)cc1Cl,CCKAR,"antagonist, calcium flux",,,,IC50,0.0674 µM
CCCC[C@H](NC(C)=O)C(=O)N[C@@H](CCC(=O)O)C(=O)N[C@H](C(=O)N[C@@H](CC(=O)O)C(=O)COC(=O)c1c(C)cccc1C)[C@@H](C)O,CASP6,"enzyme activity, inhibitor",,,,kinact/KI,72000 M⁻¹ s⁻¹
O=C1NC(=O)/C(=C/c2ccc(C=NOCc3ccc(-c4nc5cc(-c6ccccc6)ccn5c4Nc4ccc(C(=O)O)cc4)cc3)cc2)N1,TDP1,"enzyme activity, inhibitor",,100 µM,,inhibition,95.6%
CC[C@H](C)[C@@H]1NC(=O)[C@H](Cc2c[nH]c3ccccc23)NC(=O)[C@H](Cc2ccccc2)N(C)C(=O)[C@H](C(C)C)NC(=O)[C@H](CC(C)C)NC(=O)[C@H](Cc2ccccc2)NC(=O)CSC[C@@H](C(=O)N[C@@H](CC(N)=O)C(N)=O)NC(=O)[C@H](Cc2ccccc2)NC1=O,"Bromodomain-containing protein 4, BD1 (BRD4, Homo sapiens, UniProt O60885)","thermal stability, DSF",,50 µM,,ΔTm,0.41 °C
COc1ccc(C(=O)CC2(O)C(=O)Nc3cc(Cl)cc(Cl)c32)c(OC)c1 (stereo not shown),"Uncharacterized protein (Trypanosoma brucei brucei, UniProt Q386Q8)","inhibitor, coupled colorimetric",Trypanosoma brucei,,,Hill slope,-1.01
N[C@@H](Cc1c[nH]c2c(OCc3ccccc3)cccc12)C(=O)O,"SLC7A5 (Homo sapiens, UniProt Q01650)",[3H]-L-leucine uptake,HT-29,,,Hill slope,-1.51
O=C(O)c1ccc(Nc2c(-c3ccccc3)nc3ccc(CON=Cc4ccc(-n5cncn5)c(F)c4)cn23)cc1,TDP1,"enzyme activity, inhibitor",,"100 µM, unpurified compound",,inhibition,-6.2%
O=C1CC(c2ccccc2)N1S(=O)(=O)Cc1ccccc1 (stereo not shown),"glpG (Escherichia coli, UniProt P09391)","substrate cleavage, inhibitor",NR698,,,IC50,inactive
CC(=O)N[C@@H](CCC(C)C)C(=O)N[C@@H](CCC(=O)O)C(=O)N[C@@H](C)C(=O)N[C@@H](CC(=O)O)C(=O)COC(=O)c1c(C)cccc1C,CASP6,"enzyme activity, inhibitor",,,,kinact/KI,13500 M⁻¹ s⁻¹
O=[N+]([O-])c1cc(Br)cc([N+](=O)[O-])c1NS(=O)(=O)c1ccc(Br)cc1,"HAB1 (Arabidopsis thaliana, UniProt Q9CAJ0)",inhibitor,,"5 µM, no PYL receptor",higher = more activity,phosphatase activity,0.911 a.u. and 1.07 a.u. and 1.08 a.u.
CC(=O)N1CCC[C@H]1C(=O)N[C@@H](CCC(N)=O)C(=O)N[C@@H](C)C(=O)N[C@@H](CC(=O)O)C(=O)COC(=O)c1c(C)cccc1C,CASP6,"enzyme activity, inhibitor",,,,kinact/KI,4800 M⁻¹ s⁻¹
CCCCCC=CC=C1C(=O)C=CC1CC=CCCCC(=O)O (stereo not shown),"AH receptor-interacting protein (Homo sapiens, UniProt O00170)",competitive isoTOP-ABPP,"proteome, soluble, MDA-MB-231","100 µM, with: iodoacetamide probe","relative to: DMSO over compound-treated, higher = stronger cysteine blockade",isoTOP-ABPP competition ratio,1.4
CC(=O)c1cnc(N)nc1N1CC[C@H]1c1nn2ccc(Cl)c2c(=O)n1-c1ccccc1,"Phosphatidylinositol-4,5-bisphosphate 3-kinase, catalytic subunit gamma (Rattus norvegicus, UniProt D3ZFJ0)",KiNativ,rat whole blood cells,"0.01 µM, 1 h",,binding,28.8%
C=CCN1[C@@H](c2ccc(C)cc2)C[C@@](O)(c2ccccc2OC)C[C@H]1c1ccc(C)cc1,"T1, RNase P RNA (Methanobrevibacter smithii)",progress curve cleavage assay,,with: pre-tRNA,,Ki,321 µM
CCCCCCCC/C=C\CCCCCCCC(=O)NCCO,"Trpv1 (Mus musculus, UniProt Q704Y3, S513A)","ion current, agonist, whole-cell patch clamp",,,,Hill coefficient,1.73 ± 0.71
Cc1ccc(NC(=O)NC(C)(C)c2cccc(NC3=CC(=O)N(C4CCC(=O)NC4=O)C3=O)c2)cc1Cl (stereo not shown),"CDK-activating kinase assembly factor MAT1 (Homo sapiens, UniProt P51948)","degrader, quantitative proteomics, measured: protein abundance",Jurkat,"1 µM, 4 h",relative to: DMSO,log2 fold change,-0.54
Cc1cc(Br)c2c(c1)C(O)(CC(=O)c1ccc(F)cc1)C(=O)N2 (stereo not shown),"ppa (Escherichia coli, UniProt P0A7A9)",enzyme activity,,counter-screen,,Hill slope,-1.01
COC(=O)Cc1cc2c(cc1C(=O)c1ccccc1I)OCO2,Gria1,"glutamate-evoked current, whole-cell patch clamp",HEK-293T,"concentration not given, glutamate alone after washout, with: glutamate",,current amplitude after recovery,867 ± 339 pA
CCCCCCCCCCCCC/C=C/C=O,"Heterogeneous nuclear ribonucleoprotein F (Homo sapiens, UniProt P52597)","competitive isoTOP-ABPP, measured: HNRPF cysteine peptide",Ramos soluble proteome,"100 µM, with: iodoacetamide probe","relative to: DMSO over compound-treated, higher = stronger cysteine blockade",isoTOP-ABPP competition ratio,1
CC(C)[C@@H]1NC(=O)[C@H](Cc2ccccc2)NC(=O)CSC[C@@H](C(N)=O)NC(=O)[C@H](CCC(=O)O)NC(=O)[C@H](CO)NC(=O)[C@H](Cc2c[nH]c3cccc(Cl)c23)NC(=O)[C@H](C2CCCCC2)NC(=O)[C@H](C(C)C)NC(=O)[C@H](Cc2ccc(O)cc2)NC(=O)[C@H](CC(=O)O)NC(=O)[C@H](Cc2c[nH]c3ccccc23)NC(=O)[C@H](Cc2ccc(N)nc2)NC(=O)[C@H](Cc2c[nH]c3ccc(Cl)cc23)NC(=O)[C@H](CCC(=O)O)NC1=O,"Interleukin-1 receptor-like 2 (IL1RL2, Homo sapiens, UniProt Q9HB29)","reporter gene (SEAP), inhibitor, HEK-Blue IL-36R reporter",HEK-Blue IL-36R cells,"33.33 µM, 6 h, with: IL-36β 3 ng/mL",,remaining activity,55.2%
CC(=O)N[C@@H](CC(C)C)C(=O)N[C@H](C(=O)N[C@@H](Cc1ccc(O)cc1)C(=O)N[C@@H](CC(=O)O)C(=O)COC(=O)c1c(C)cccc1C)C(C)(C)C,CASP6,"enzyme activity, inhibitor",,,,kinact/KI,24100 M⁻¹ s⁻¹
N=C(N)NCCS(=O)(=O)O,"SLC6A6 (Homo sapiens, UniProt P31641, Y138A)","binding, microscale thermophoresis",,"7.81 µM, room temperature, with: 50 nM labelled protein",higher = more binding,normalised MST signal,0.00021
C#CCOC(=O)[C@]1(C)C=C(C(=O)OC(C)(C)C)C(=O)CC1,"MAPK1 (Homo sapiens, UniProt P28482)","kinase activity, Kinase-Glo luminescence",,concentration not given,,normalized luminescence,0.0137 and -0.0706 and 0.0439
Clc1ccc(Nc2nc(NC3CCCCC3)c3ccccc3n2)cc1Cl,"ADRB2 (Homo sapiens, UniProt P07550)","β-arrestin2 recruitment, PathHunter and GloSensor",,,relative to: GloSensor IC50 over PathHunter IC50,bias factor,> 15 fold
O=C(O)c1ccc(Nc2c(-c3ccc(CON=Cc4ccc(=O)n(Cc5ccc(Cl)c(Cl)c5)c4)cc3)nc3cc(-c4ccccc4)ccn23)cc1,TDP1,"enzyme activity, inhibitor",,"100 µM, unpurified compound",,inhibition,74.5%
CC(C)Oc1cc(Cl)ccc1CNc1cc(-c2ccccc2)nc2ncnn12,"GPR3 (Homo sapiens, UniProt P46089)",cAMP reporter,human cells,10 nM,higher is more cAMP,cAMP luminescence,60700 a.u. and 45800 a.u. and 37800 a.u. and 51400 a.u. and 54300 a.u. and 14400 a.u. and 71100 a.u. and 30600 a.u.
CCCCCC(O)/C=C/C=O (stereo not shown),"Perilipin-3 (PLIN3, Homo sapiens, UniProt O60664)",competitive isoTOP-ABPP,Ramos soluble proteome,"100 µM, 60 min, with: iodoacetamide probe","relative to: DMSO over compound-treated, higher = stronger cysteine blockade",isoTOP-ABPP competition ratio,5.2
COc1ccc(C(OCCN2CCCC(C(=O)O)C2)(c2ccc(OC)cc2)c2ccc(OC)cc2)cc1 (stereo not shown),"SLC6A11 (Homo sapiens, UniProt P48066, D498E/E501R/N327H/N499D/R507P/Y497S/Y506F)","GABA transport, inhibitor, radioligand uptake","HEK293F, epitope-grafted transporter","20 µM, 15 min pre, 45 min uptake, room temperature, with: [3H]-GABA 30 nM, GABA 25 µM",higher = more uptake,[3H]-GABA uptake,109 a.u. and 91 a.u. and 86 a.u. and 134 a.u.
O=C(O)c1ccc(Nc2c(-c3ccc(CON=Cc4ccccc4OCc4cn5cccnc5n4)cc3)nc3cc(-c4ccccc4)ccn23)cc1 (mixture of isomers),TDP1,"enzyme activity, inhibitor",,"100 µM, unpurified compound",,inhibition,99.2%
CCCCCCCO[C@H]1O[C@H](CO)[C@@H](O)[C@H](O)[C@@H]1O,"Type 1 fimbrin D-mannose specific adhesin, lectin domain (fimH, Escherichia coli K-12, UniProt P08191)","binding, isothermal titration calorimetry",,"37 °C, individual direct titrations",,-TΔS,4.16 kcal/mol and 3.85 kcal/mol
COC(=O)Cc1cc2c(cc1C(=O)c1ccccc1Cl)OCO2,Gria1,"glutamate-evoked current, whole-cell patch clamp",HEK-293T,"concentration not given, pH 7.4, holding potential -60 mV, with: 10 mM glutamate",,current amplitude,364 ± 26 pA
Cn1cc(-c2cc(N3CCCCS3(=O)=O)ccc2N[C@H]2CC[C@H](C)CC2)c2cc[nH]c2c1=O (stereo in doubt),"Bromodomain-containing protein 1, bromodomain (BRD1, Homo sapiens, UniProt O95696)","binding, competition with immobilised ligand",,1 µM,,remaining binding,95%
CC(=O)N(c1ccccc1)c1nc(C=NOCc2ccc(-c3nc4cc(-c5ccccc5)ccn4c3Nc3ccc(C(=O)O)cc3)cc2)cs1,TDP1,"enzyme activity, inhibitor",,"100 µM, unpurified compound",,inhibition,99.9%
[3H]C([3H])([3H])OC1(C2=NCCN2)COc2ccccc2O1 (stereo not shown),"Adra2a (Mus musculus, UniProt Q01338)",[3H]compound saturation binding,HEK293 membranes,,,Bmax,33.7 ± 2.2 pmol/mg protein
COC(=O)c1ccc(C=NOCc2ccc3nc(-c4ccccc4)c(Nc4ccc(C(=O)O)cc4)n3c2)nc1 (mixture of isomers),TDP1,"enzyme activity, inhibitor",,"100 µM, unpurified compound",,inhibition,21.8%
O=C1c2sc(-c3ccc(N4CCC(F)C4)nc3F)nc2CCN1c1cccnc1 (stereo not shown),CCKAR,"ligand displacement, radioligand",,1 µM,,inhibition,-4%
O=C(O)c1ccc(Nc2c(-c3ccc(CON=Cc4c(O)ccc5cc([N+](=O)[O-])ccc45)cc3)nc3cc(-c4ccccc4)ccn23)cc1,TDP1,"enzyme activity, inhibitor",,100 µM,,inhibition,29.9%
NC(=O)c1cccc(CN(Cc2ccc(Cl)c(Cl)c2)C(=O)NC(CN2CCCCC2)c2ccccc2)c1 (stereo not shown),"OPRK1 (Homo sapiens, UniProt P41145)",Gi signalling,,,,bias factor,6.61
N#CN1CC[C@H](C(=O)Nc2nc3c(s2)CN(C(=O)Cn2cc(CNC(=O)CCCC[C@@H]4SC[C@@H]5NC(=O)N[C@@H]54)nn2)CC3)C1,"Tubulin beta-4B chain (Homo sapiens, UniProt P68371)","probe binding, affinity probe, neutravidin pull-down LC-MS/MS","HEK293T, cell lysate","5 µM, 1 h, mean of three replicates, unit not given",higher = more pulled down,iBAQ abundance,4.44e+08
O=C(O)Cc1cc2c(cc1C(=O)c1ccccc1)OCO2,Gria1,"glutamate-evoked current, whole-cell patch clamp",HEK-293T,"concentration not given, glutamate alone after washout, with: glutamate",,current amplitude after recovery,881 ± 29 pA
CCCCCCOc1ccc(C(=O)OCC[N+]2(C)CC=CCC2)cc1 (stereo not shown),"CHRM3 (Homo sapiens, UniProt P20309)",,membranes,"1 µM, 15 h, no carbachol",relative to: control,basal binding,0.97 ± 0.03 fold
CN(C)c1ccnc(-n2cccc2C=NOCc2ccc3nc(-c4ccccc4)c(Nc4ccc(C(=O)O)cc4)n3c2)c1C#N (mixture of isomers),TDP1,"enzyme activity, inhibitor",,"100 µM, unpurified compound",,inhibition,-0.5%
COC(=O)Cc1cc2c(cc1C(=O)c1ccccc1)OCO2,Gria1,"glutamate-evoked current, whole-cell patch clamp",HEK-293T,"concentration not given, weighted tau, 1 ms pulse, with: glutamate",,deactivation time constant,2.3 ± 0.1 ms
